Measured values of several laboratories.
Every numbered part comes from another study and shows a few of its results, in no order. Several values in a cell are separate wells, animals, samples, runs or records. pEC50, pIC50: −log10 of the molar value.

Series 1
Target: Alpha-2A adrenergic receptor (ADRA2A, Homo sapiens, UniProt P08913)
Sequence of UniProt P08913 (whole entry, looked up): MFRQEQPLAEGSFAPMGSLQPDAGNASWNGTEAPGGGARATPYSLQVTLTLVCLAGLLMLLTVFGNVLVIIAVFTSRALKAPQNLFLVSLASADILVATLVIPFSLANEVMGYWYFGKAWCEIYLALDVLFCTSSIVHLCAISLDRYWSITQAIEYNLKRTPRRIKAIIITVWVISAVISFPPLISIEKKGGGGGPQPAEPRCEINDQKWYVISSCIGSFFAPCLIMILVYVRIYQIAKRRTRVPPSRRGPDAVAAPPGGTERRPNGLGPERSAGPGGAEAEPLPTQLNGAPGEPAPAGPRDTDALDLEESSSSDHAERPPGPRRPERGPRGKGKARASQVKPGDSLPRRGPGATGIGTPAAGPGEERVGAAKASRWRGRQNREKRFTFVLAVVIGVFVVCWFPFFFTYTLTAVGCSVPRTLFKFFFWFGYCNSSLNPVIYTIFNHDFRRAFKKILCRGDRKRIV
Read-out: ligand displacement
Tested at: 10 µM
Compound | inhibition [%]
C[C@@H]1CN(c2cc(-c3n[nH]c4ccc(OC5(C)CC5)cc34)ncn2)C[C@H](C)O1 | -2.84
Cc1c(NC(=O)c2cc(C(N)=O)nc3cc(F)ccc23)c(C(F)(F)F)nn1Cc1ccc(C#N)cc1 | 0.0425
c1ccc(C2CCN(c3cnc4c(N5CCOCC5)nccn34)CC2)cc1 | 34.6
CC[C@H](CC(=O)O)n1c(=O)c2ncccc2n(Cc2cn(C)c3cc(C)cc(C)c23)c1=O | 19.6
Nc1nc(NCc2ccccc2)nc(-c2cccc(CO)c2)n1 | 7.24
O=C(Nc1ccc(Oc2ccc(F)cc2)cc1)N1CCc2ncccc2[C@H]1c1ccc(F)cc1 | 7.16
CN(C)CC#Cc1ccc(OCCCc2sc(N3CCc4cccc(C(=O)Nc5nc6ccccc6s5)c4C3)nc2C(=O)O)c(F)c1 | 7.32
NS(=O)(=O)c1cc(NC(=O)Cc2ccccc2)ccc1Oc1cccc(Cl)c1 | 6.31
Nc1nc(NCc2ccccc2)nc(-c2ccccc2CO)n1 | 24.4
COc1cc(N[C@@H]2CCCC[C@]2(O)C(F)(F)F)ccc1F | -18.7
CC1=C(C#N)C(c2ccc3[nH]nc(C)c3c2)C(C#N)=C(C)N1 | -3.48
COc1cccc(NC(=O)c2nc3scc(CN(C)Cc4ccccc4)c3c(=O)[nH]2)c1 | 27.3
CN1CCN(c2cnc3c(C4CCN(C(=O)c5ccc(OC(F)(F)F)cc5N)CC4)ncnc3c2)CC1 | -3.41

Series 2
Host: human
Medium: microsomes or S9
Tested at: 2 µM
Time: 0.5 h
SMILES | remaining compound [%]
CN1C(=O)N(C)C2(CCN(CCOc3ccccc3)C2)C1=O (centres unmarked) | 98.6
CC(C)N1/C(=C/C2=Cc3ccccc3OC2)C(=O)c2ccccc2S1(=O)=O | 3.15
Cc1nc(N2CCN(c3ccccn3)CC2)nc2c1C(=O)CC(c1cccs1)C2 (centres unmarked) | 18.4
COc1nc2cc(C)ccc2cc1CN(C)C1(C)CCS(=O)(=O)C1 (centres unmarked) | 15.2
O=C(Cn1cnc2ccccc21)NCc1n[nH]c(=O)c2ccccc12 | > 100

Series 3
Target: Synaptic vesicular amine transporter (SLC18A2, Homo sapiens, UniProt Q05940)
Sequence of UniProt Q05940 (whole entry, looked up): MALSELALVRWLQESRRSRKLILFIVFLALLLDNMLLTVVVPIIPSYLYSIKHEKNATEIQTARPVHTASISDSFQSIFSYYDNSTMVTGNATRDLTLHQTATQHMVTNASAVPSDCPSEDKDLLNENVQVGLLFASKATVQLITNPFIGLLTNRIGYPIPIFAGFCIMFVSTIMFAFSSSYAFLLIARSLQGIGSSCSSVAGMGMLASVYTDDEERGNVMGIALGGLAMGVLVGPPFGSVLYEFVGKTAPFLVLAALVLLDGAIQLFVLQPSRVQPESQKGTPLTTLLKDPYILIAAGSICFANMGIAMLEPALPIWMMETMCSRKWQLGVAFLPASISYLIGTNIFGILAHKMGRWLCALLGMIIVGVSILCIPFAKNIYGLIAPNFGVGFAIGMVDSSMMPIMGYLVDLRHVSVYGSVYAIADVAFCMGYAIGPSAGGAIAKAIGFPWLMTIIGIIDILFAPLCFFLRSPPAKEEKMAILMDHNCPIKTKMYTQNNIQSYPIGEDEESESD
Read-out: uptake
Action: inhibitor
Compound | pIC50
Oc1ccc(CCCCNC[C@H](O)c2ccc(O)c(O)c2)cc1 | 7.70
COc1cc2c(cc1OC)[C@H]1[C@@H](C)c3ccc(OC)c(OC)c3CN1CC2 | 5.71
CCCN[C@H]1CCc2nc(N)sc2C1 | 5.62

Series 4
Cell line: mouse MPNST tumor cells
Method: high-content nuclear imaging
Refers to: cell number
Tested at: 10 µM
Time: 12 h
Setting: mean of 2 replicates
Baseline: plate mean
Direction: higher = more cells
SMILES | nuclei count
CCN(CC)CCNC(=O)c1cc(Br)c(N)cc1OC | 0.277 z-score
Nc1ccc(S(=O)(=O)Nc2ccc(Cl)nn2)cc1 | 1.91 z-score
CC(C)(N)c1cc(C(=O)N[C@@H]2CCc3ccc(Oc4ccnc5c4CCC(=O)N5)cc3C2)cc(C(F)(F)F)c1 | 2.18 z-score
CCCc1cc(=O)[nH]c(=S)[nH]1 | 0.223 z-score and 1.02 z-score

Further values, each from its own experiment
SMILES | cell line | test | setting | quantity | value
CC[C@H](C)c1nc2cc(Nc3ccnc4ccc(S(=O)(=O)C(C)C)cc34)ccc2s1 | HT-29 | necroptosis | with: TNF-α, Smac mimetic, z-VAD | pEC50 | 5.39

For quick reference, copied from above (series 2):
SMILES | remaining compound [%]
COc1nc2cc(C)ccc2cc1CN(C)C1(C)CCS(=O)(=O)C1 (centres unmarked) | 15.2
O=C(Cn1cnc2ccccc21)NCc1n[nH]c(=O)c2ccccc12 | > 100
